Results gathered from unrelated publications.
Values joined by “and” are separate records of one study, mostly repeats; a detail may differ. Numbers after ± are the reported error.
EPHX2: Bifunctional epoxide hydrolase 2 (EPHX2, Homo sapiens, UniProt P34913)
SSTR1: Somatostatin receptor type 1 (SSTR1, Homo sapiens, UniProt P30872)

Compound = O=C(CCCCCCNC(=O)[C@H]1CCCN(C(=O)c2ccc(NC(=O)NC(c3ccccc3)c3ccccc3)c(F)c2)C1)NO; target = EPHX2; assay = enzyme activity, inhibitor, fluorescence; IC50 = 10.2 nM
Compound = COc1ccc(-c2cn(CCN3CCOCC3)c3ncnc(N)c23)cc1OC; target = CDPK1 (Plasmodium falciparum, UniProt P62344); assay = enzyme activity, inhibitor; IC50 = > 2000 nM
Compound = C[C@]12CC3CC(Nc4c(Nc5ccc(C(=O)N6CCC[C@H](C(=O)NCCCCC(=O)NO)C6)cc5)c(=O)c4=O)(C1)C[C@@](C)(C3)C2; target = EPHX2; assay = enzyme activity, inhibitor, fluorescence; IC50 = 104 nM
Compound = CCCCC[C@H](CC(=O)NO)C(=O)N[C@H](C(=O)N1CCC[C@H]1CO)C(C)C; target = MEP1A (Homo sapiens, UniProt Q16819); assay = enzyme activity, inhibitor, FRET; IC50 = 4.4 ± 0.2 nM
Compound = C#CCOCCC(=O)NC(Cc1ccc(F)cc1)C(=O)NC(Cc1ccccc1)C(=O)NC(C=CC(=O)OCC)CC1CCNC1=O (stereo not shown); target = Replicase polyprotein 1ab, main protease (rep, Severe acute respiratory syndrome coronavirus 2, UniProt P0DTD1); assay = enzyme activity, inhibitor; IC50 = 700 nM
Compound = O=C(Nc1ccc(F)cc1)Nc1cccc(-c2nnc(C3CCCCC3)o2)c1; target = α-amylase; assay = enzyme activity, inhibitor; IC50 = 5090 nM
Compound = CC(=O)Oc1cc(-c2coc3cc(OC(C)=O)c(OC(C)=O)c(OC(C)=O)c3c2=O)cc(OC(C)=O)c1OC(C)=O; target = firefly luciferase; assay = ADP-Glo ADP processing, luminescence counter-screen; test system = cell-free, no kinase; setting = up to 77 µM, added: ADP 1.25 µM, ATP 11.25 µM; IC50 = no inhibition
Compound = COC(=O)CO[C@@H]1CC(=O)[C@@]2(C)CC[C@@H]3c4ccc(OCc5ccccc5)cc4CC[C@H]3[C@H]12; target = HSD17B1 (Homo sapiens, UniProt P14061); assay = enzyme activity, inhibitor, radiometric; IC50 = 780 to 1500 nM
Compound = Nc1cccc(C(=O)O)c1; target = lipoxygenase; assay = enzyme activity, inhibitor; setting = pH 8.0, 25 °C, added: linoleic acid; IC50 = 61400 ± 360 nM
Compound = CCn1[c](=[Au-2][Cl])n(CC)c2ccccc21; target = trxB (Escherichia coli, UniProt P0A9P4); assay = enzyme activity, inhibitor, absorbance; setting = with preincubation; IC50 = 183 nM
Compound = COc1ccc2c(c1OC)C(=O)O[C@@H]2[C@H]1c2c(cc3c(c2OC)OCO3)CCN1C; target = CYP2C19 (Homo sapiens, UniProt P33261); assay = enzyme activity, inhibitor; test system = human, liver microsomes; setting = pH 7.4; IC50 = 5000 nM and 5700 nM
Compound = OC1CCCc2c(OCc3ccccc3)cccc21 (stereo not shown); target = MAOB (Homo sapiens, UniProt P27338); assay = enzyme activity, inhibitor, fluorescence; IC50 = 5050 nM
Compound = C=CC(C)(O)Cc1cc2cc(-c3ccc(O)cc3O)c(=O)oc2cc1O (stereo not shown); target = RELA (Homo sapiens, UniProt Q04206); assay = NF-κB activity, inhibitor; IC50 = 340 nM
Compound = Cc1cc(C(=O)N2CCC[C@H](C(=O)NCCCCCCC(=O)NO)C2)ccc1NC(=O)N[C@@]12C[C@@H]3C[C@@](C)(C[C@@](C)(C3)C1)C2; target = EPHX2; assay = enzyme activity, inhibitor, fluorescence; IC50 = 0.3 nM
Compound = CN1CCC[C@H]1COc1nc2c(c(N3CCN(S(C)(=O)=O)[C@@H](CC#N)C3)n1)CCN(c1cccc3cccc(Cl)c13)C2; target = GTPase KRas (KRAS, Homo sapiens, UniProt P01116, G12C); assay = cell-based; IC50 = 3000 nM
Compound = CC(C)NCc1ccc(C[C@@H]2NC(=O)[C@H](N(C)C(=O)c3ccc4ccccc4c3)NC(=O)[C@H](Cc3ccccc3)NC(=O)[C@H](NC(=O)[C@@H](N)Cc3ccc(O)cc3)CSSC[C@@H](C(=O)N[C@@H](Cc3ccc4ccccc4c3)C(N)=O)NC(=O)[C@H](Cc3ccccc3)NC2=O)cc1; target = SSTR1; assay = ligand displacement, radioligand; setting = cell membranes; IC50 = 365 nM
Compound = Cc1ccc([N+](=O)[O-])cc1S(=O)(=O)N(C)C; target = PDE7B (Homo sapiens, UniProt Q9NP56); assay = enzyme activity, inhibitor, radiometric; IC50 = 12100 nM
Compound = CC(C)NCc1ccc(C[C@@H]2NC(=O)[C@H](N(C)C(=O)c3ccc4ccccc4c3)NC(=O)[C@H](Cc3ccccc3)NC(=O)[C@@H](N)CSSC[C@@H](C(N)=O)NC(=O)[C@H](Cc3ccc(O)cc3)NC2=O)cc1; target = SSTR1; assay = ligand displacement, radioligand; setting = cell membranes; IC50 = 631 nM
Compound = Cc1nc2ccccc2n1Cc1ccc(C(=O)NO)cc1; target = HDAC6 (Homo sapiens, UniProt Q9UBN7); assay = enzyme activity, inhibitor; IC50 = 4.65 nM
Compound = CCC[C@H](NC(=O)CN1C(=O)SC(=Cc2ccc3c(c2)OCO3)C1=O)C(=O)OCC; target = α-amylase; assay = enzyme activity, DNSA colorimetric; IC50 = > 100000 nM
Compound = Cc1ccc(Oc2cccc(CC(=O)N3CCNc4nc(C(F)(F)F)ccc4[C@H]3CC(=O)O)c2)cn1; target = Neuromedin-B receptor (Rattus norvegicus, UniProt P24053); assay = ligand displacement, radioligand; IC50 = > 3000 nM
Compound = COCC(=O)O[C@]1(CCN(C)CCCc2nc3ccccc3[nH]2)CCc2cc(F)ccc2[C@@H]1C(C)C; target = Voltage-dependent P/Q-type calcium channel subunit alpha-1A, with β4/α2δ1 (Homo sapiens, UniProt O00555); assay = calcium current, blocker, automated patch clamp; test system = holding potential -90 mV; setting = last pulse of train, added: 0.1 Hz pulse train; IC50 = 2200 ± 600 nM

Repeated from above:
Compound = COC(=O)CO[C@@H]1CC(=O)[C@@]2(C)CC[C@@H]3c4ccc(OCc5ccccc5)cc4CC[C@H]3[C@H]12; target = HSD17B1 (Homo sapiens, UniProt P14061); assay = enzyme activity, inhibitor, radiometric; IC50 = 780 to 1500 nM
Compound = C#CCOCCC(=O)NC(Cc1ccc(F)cc1)C(=O)NC(Cc1ccccc1)C(=O)NC(C=CC(=O)OCC)CC1CCNC1=O (stereo not shown); target = Replicase polyprotein 1ab, main protease (rep, Severe acute respiratory syndrome coronavirus 2, UniProt P0DTD1); assay = enzyme activity, inhibitor; IC50 = 700 nM
Compound = CC(C)NCc1ccc(C[C@@H]2NC(=O)[C@H](N(C)C(=O)c3ccc4ccccc4c3)NC(=O)[C@H](Cc3ccccc3)NC(=O)[C@H](NC(=O)[C@@H](N)Cc3ccc(O)cc3)CSSC[C@@H](C(=O)N[C@@H](Cc3ccc4ccccc4c3)C(N)=O)NC(=O)[C@H](Cc3ccccc3)NC2=O)cc1; target = SSTR1; assay = ligand displacement, radioligand; setting = cell membranes; IC50 = 365 nM
Compound = O=C(Nc1ccc(F)cc1)Nc1cccc(-c2nnc(C3CCCCC3)o2)c1; target = α-amylase; assay = enzyme activity, inhibitor; IC50 = 5090 nM
